Experimental data pooled from the literature.
Each numbered part is a random draw from the data of one study; scales do not carry over between parts. Positions count from the first letter of the parent shown.

Study 1
Target: CCNA2, cyclin fold, Cln2 fusion (human)
Method: yeast growth competition, sequencing
Sample: yeast
Setting: strong parent motif
Reference: not given
Direction: higher = stronger binding
Parent: WEE1 docking peptide (human); HKTFRKLRLFDTP
Variant | normalised enrichment score
HKTFRKLRLEDTP [F10E] | 1.35
HKTFMKLRLFDTP [R5M] | 1.94
HKTFRKLRLNDTP [F10N] | 0.67
HKTFWKLRLFDTP [R5W] | 1.77
HPTFRKLRLFDTP [K2P] | 1.17
HKTFRKCRLFDTP [L7C] | 2.44
HETFRKLRLFDTP [K2E] | 1.2
HKTFRKTRLFDTP [L7T] | 1.08
HKTFRELRLFDTP [K6E] | 0.513
HKTFNKLRLFDTP [R5N] | -5.95
HKTFVKLRLFDTP [R5V] | 0.573
HKTFRKLRLKDTP [F10K] | 1.21
HRTFRKLRLFDTP [K2R] | 2.53
HYTFRKLRLFDTP [K2Y] | 1.42
HKTFGKLRLFDTP [R5G] | 0.675
HKTFFKLRLFDTP [R5F] | 1.59
HKTFRKLRLFDTA [P13A] | 2.28
HKTFRKLRLFDTH [P13H] | 0.544
HKTFRKLREFDTP [L9E] | 0.784
HKKFRKLRLFDTP [T3K] | 0.441
HKTFRKLRLFHTP [D11H] | -0.0303
HKTWRKLRLFDTP [F4W] | 2.32
HKTFRKLRLFDTG [P13G] | 0.516
HKTFRKLRLFDIP [T12I] | 1.71
HKTFRKLSLFDTP [R8S] | 1.93

Study 2
Target: CEBPD, bZIP domain (human)
Method: DHFR protein complementation
Sample: yeast
Setting: single substitutions, most at no-binding floor
Reference: wild-type JUN-FOS pair
Direction: higher = stronger binding
Parent: JUN, bZIP domain (human); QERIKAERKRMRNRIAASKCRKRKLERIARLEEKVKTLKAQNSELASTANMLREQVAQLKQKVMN; partner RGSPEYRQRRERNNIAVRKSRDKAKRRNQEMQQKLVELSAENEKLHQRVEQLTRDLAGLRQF
Variant | binding fitness
Q55F | -1.45 natural log
A57R | -1.38 natural log
V35P | -1.45 natural log
L31P | -1.47 natural log
N42S | -1.44 natural log
T37C | -1.18 natural log
K39F | -1.44 natural log
N42H | -1.39 natural log
K39L | -1.41 natural log
S47H | -1.36 natural log
Q41T | -1.37 natural log
A29V | -1.41 natural log
A46W | -1.39 natural log
R30F | -1.36 natural log
A29F | -1.17 natural log

Study 3
Target: Interferon regulatory factor 5, full length, phosphomimetic (IRF5, Homo sapiens, UniProt Q13568-2, residues 1-514, S451D/S453D/S456D/S462D)
Method: protein-binding microarray
Molecule type: double-stranded DNA, one strand shown
Sample: in vitro
Tested at: 940 nM top
Setting: 60-bp whole probe
With: salmon DNA 0.4 mg/ml
Reference: random background probes
Direction: higher = stronger binding
All sequences stand within: GCCTAGCAC … GTCTTGATTCGCTTGACGCTGCTG
Strand | fitted relative affinity [z-score]
CGAGACCTCGTCTCTATCAAAGTGCTA | 0.413
AAGACTTTGCTCTGTGCATAGGTGCTA | -0.126
GACGGTATCAGACTGGAGACGTGCTAG | 0.232
TTAGGACTGGGCTTTCGGTTAGTGCTA | 1.1
CCCATTCTGAATTCGAATGCGTGCTAG | 0.0361
GACGGACTGGACACTCGGGACGTGCTA | -0.311
CTCCTTCAGTATCCTTAGATGTGCTAG | 0.732
TTAGGCTTCCTACTGCTTTAGTGCTAG | -0.016
GACGGTCTAGGTCTCGGGACGTGCTAG | -0.215
TTAGATCTCAGTCTCGATTTGTGCTAG | 3.03
GTCGGTTTCGACTTTCGGGACGTGCTA | 9.11
GACGAACTGGGGACGGGAGACGTGCTA | 0.11
TTAGGACTGCTTCTCCTTGAGTGCTAG | -0.212
CAAACACTAGTTTTTACTTTGTGCTAG | -0.00165
TTAGGTATCGACACTGGGGTAGTGCTA | 5.16
TGGGTATTTTTTCTGAACCAGTGCTAG | 1.28
TAATATCTAAGATTCTAGCCGTGCTAG | -0.521
GACGGTCTCGGTTTCCGGACGTGCTAG | 4.8
TCAGCCAGCTCTTTCGTACTGTGCTAG | -0.00676
TTAGGACTGCTTTTCCGTTAGTGCTAG | -0.29
TTAGAACTGAGACGGGATTAGTGCTAG | -0.493
GACGATTTCGGGTCTGGAGACGTGCTA | 0.392
TTAGGTATCGGACTGGATTAGTGCTAG | 3.79
GACGGACTGGACTTTCGGGGCGTGCTA | 0.329
TAAGGTATCGACTTTCGGTTAGTGCTA | 4.68

Study 4
Target: Fragile X messenger ribonucleoprotein 1, C-terminal low-complexity region (Fmr1, Mus musculus, UniProt P35922)
Method: RNA Bind-n-Seq
Molecule type: RNA
Sample: in vitro
Tested at: 200 nM
Setting: whole 134-nt RNA, ends assumed
With: 150 mM KCl
Reference: input library
Direction: higher = stronger binding
Strand | log2 enrichment
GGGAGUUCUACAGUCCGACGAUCUCCUGUGCUACACAUCGUAUGUACCGAAUCGGGGAAAGGGGAAAAAGGGGAAAAAGGGGAAAGUAUUAUGUUACGCCGUUCGGAUCUGCAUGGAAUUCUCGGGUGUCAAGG | 0.298
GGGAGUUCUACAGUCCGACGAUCCCUCAAGUCCUGUGCUACACAUCGUAUGUACCGAAUCGGGCGGGCGGGGCGGGAAAGUAUUAUGUUACGCCGUUCGGAUCUGCACUUCCAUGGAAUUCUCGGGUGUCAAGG | 1.28
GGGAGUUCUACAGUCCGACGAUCCACAGACAACACGCACCCACACAGACACAGAGGGAAGGUGUUGGGAUGGGGACAGGGUGCACAGCAGGGCGGGGUAGGACCCCAGCCCCUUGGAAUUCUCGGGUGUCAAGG | 1.03
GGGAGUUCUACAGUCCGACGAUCUCAAGUCCUGUGCUACACAUCGUAUGUACCGAAUCGGGUUUGGUUUGGGUUUGGAAAGUAUUAUGUUACGCCGUUCGGAUCUGCACUUCCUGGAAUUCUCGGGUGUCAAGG | -0.364
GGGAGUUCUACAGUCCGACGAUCUAUCUUUAGAGGAGGAUCUGAUGGAUAUGGCAGUGGACGUGGAUUUGGGGAUGGCUAUAAUGGGUAUGGAGGAGGACCUGGAGGUGGCAAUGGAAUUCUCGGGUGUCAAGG | 0.297
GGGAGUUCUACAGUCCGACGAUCUGGAGCCCAACCUGUGCCGCUCAGUCCUCAUUGCCAACACGGUCCGGCAGAUCCAAGAGGAGAUGACGCAGGAUGGGACGUGGCGCACAGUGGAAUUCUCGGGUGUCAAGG | -0.783
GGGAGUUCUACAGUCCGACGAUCCCUCAAGUCCUGUGCUACACAUCGUAUGUACCGAAUCGGGGUGGGUGGUGGGGAAAGUAUUAUGUUACGCCGUUCGGAUCUGCACUUCCAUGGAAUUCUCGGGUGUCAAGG | 1.21
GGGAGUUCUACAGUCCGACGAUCGGACACAGCUUGGGCUAUGGCUUUGUGAACUACGUGACCGCGAAGGAUGCAGAGAGAGCGAUCAACACGCUGAACGGCUUGAGGCUCCAGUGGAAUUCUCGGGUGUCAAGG | -1.73
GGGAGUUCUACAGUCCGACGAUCGUCCUGUGCUACACAUCGUAUGUACCGAAUCGGAAAAAAGGGAAAAAAGGGAAAAAAGGAAAGUAUUAUGUUACGCCGUUCGGAUCUGCAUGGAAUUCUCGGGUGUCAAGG | -0.897
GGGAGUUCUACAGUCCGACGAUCGCAGGAAGUAAAAACAAAUGGAAAUGCUUCGGAUAGUGGCAGAGGUGGGGGUUGCUAAGGAAAGGGUGGGAUGGGAGUGGGUAAAGAGUUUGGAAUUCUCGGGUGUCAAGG | 0.312
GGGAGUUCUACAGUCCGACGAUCAAGUCCUGUGCUACACAUCGUAUGUACCGAAUCGGGGUGGGGAGGGGAAAAAGGGGAAAGUAUUAUGUUACGCCGUUCGGAUCUGCACUUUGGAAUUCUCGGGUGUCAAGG | 0.821
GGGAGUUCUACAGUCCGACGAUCUGGGAGGUGGAUUUUGUUUAUUUUUUUAGCUCAUUUCCAGGGGUGGGAAUUUUUUUUUAAUAUGUGUCAUGAAUAAAGUUGUCUUUGAAAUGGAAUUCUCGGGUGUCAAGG | 0.664
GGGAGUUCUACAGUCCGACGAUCAGUCCUGUGCUACACAUCGUAUGUACCGAAUCGGGGUUUUGGGUUUUGGGUUUUGGGGAAAGUAUUAUGUUACGCCGUUCGGAUCUGCACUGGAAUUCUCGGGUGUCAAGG | 0.823
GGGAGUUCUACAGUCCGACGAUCGCAGGAAGUAAAAACAAAUGGAAAUGCUUCGGAUAGUGGCAGGGGUGGGGGUUGCUAGGGAAAGGGUGGGAUGGGAGUGGGUAAAGAGUUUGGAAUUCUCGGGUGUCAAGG | 0.212

Study 5
Target: ABI1, truncated, D143A, DHFR fusion (Arabidopsis thaliana)
Method: DHFR PCA, deep sequencing
Sample: yeast
Setting: methotrexate growth selection, single substitutions
With: (+)-ABA 4.8 µM
Reference: wild-type fitted maximum
Direction: higher = stronger binding
Parent: PYL1, truncated, DHFR fusion (Arabidopsis thaliana); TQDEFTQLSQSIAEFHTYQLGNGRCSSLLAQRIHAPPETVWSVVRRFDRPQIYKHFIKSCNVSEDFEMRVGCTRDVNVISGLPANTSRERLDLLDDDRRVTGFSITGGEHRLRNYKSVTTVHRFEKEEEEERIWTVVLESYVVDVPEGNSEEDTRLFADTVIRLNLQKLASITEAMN; partner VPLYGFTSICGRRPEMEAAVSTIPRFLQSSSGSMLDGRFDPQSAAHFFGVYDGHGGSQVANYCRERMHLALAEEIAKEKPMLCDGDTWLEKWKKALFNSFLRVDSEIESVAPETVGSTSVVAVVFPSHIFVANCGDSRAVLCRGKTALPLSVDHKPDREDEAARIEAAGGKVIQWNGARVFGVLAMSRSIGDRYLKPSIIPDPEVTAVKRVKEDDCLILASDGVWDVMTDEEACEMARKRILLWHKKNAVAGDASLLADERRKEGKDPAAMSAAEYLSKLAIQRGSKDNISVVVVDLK
Variant | relative binding score
D3K | 56.4%
R90F | -3.2%
H16E | -10.4%
S87M | 23.8%
F5R | 66%
R123D | 54.5%
L164R | 59.8%
V43M | 42.1%
G23C | 25.6%
I12N | -13.3%
D153H | -1.71%
A35S | 46.4%

A few entries again (study 2):
Variant | binding fitness
V35P | -1.45 natural log
L31P | -1.47 natural log
N42S | -1.44 natural log
T37C | -1.18 natural log
K39F | -1.44 natural log
N42H | -1.39 natural log
K39L | -1.41 natural log
S47H | -1.36 natural log
Q41T | -1.37 natural log
A29V | -1.41 natural log
A46W | -1.39 natural log
